Assay results pooled from the literature.
Protocols differ between the studies behind these lines. Numbers after ± are the reported error. ≈ marks a conversion by molar mass, not a printed value.

COC1=CC(=O)C[C@@H](C)[C@]12Oc1c(Cl)c(OC)cc(OC)c1C2=O — thermodynamic solubility (shake-flask; Captex 355; 37 °C): 1 ± 0.04 mg/g
COC(=O)c1ccc2c(c1)NC(=O)/C2=C(\Nc1ccc(N(C)C(=O)CN2CCN(C)CC2)cc1)c1ccccc1 — Cmax steady state (human moderate liver impairment, plasma; oral, 150 mg twice daily, geometric mean): 143 ng/mL
L-valine isopropyl ester ibuprofenate — cumulative permeated amount (pig, abdominal skin; dose not given, 24 h, pH 7.4, 32 °C, donor 70% ethanol): 604.5 ± 4.87 µg/cm2
O=C(CCCN1CCC(O)(c2ccc(Cl)cc2)CC1)c1ccc(F)cc1 — QTc change (male Hartley guinea pig, anaesthetized; intravenous infusion, 1 mg/kg, 10 min infusion; baseline: baseline): 15.8 ± 3.6%
CCOc1nc2cccc(C(=O)O)c2n1Cc1ccc(-c2ccccc2-c2nnn[nH]2)cc1 — thermodynamic solubility (shake-flask; polysorbate 80; 37 °C): 5.04 ± 0.94 mg/g
N=S1(=O)CCC(NC(=O)c2n[nH]cc2NC(=O)c2c(Cl)cccc2Cl)CC1 (stereo not shown) — thermodynamic solubility (shake flask; water; pH 6.5): 52 µg/mL (≈ 121 µM)
O=C1N=C(N2CCOCC2)CN1c1ccc(Cl)cc1 — apparent oral clearance (beagle dog, female, plasma; oral, 30 mg/kg, tablets, fasted): 5.18 mL/min/kg
CC(C)CC(=O)NCC(=O)O — total plasma concentration ratio (human hemodialysis patients, plasma; pre-treatment; baseline: hemodialysis over normal subjects): 9
C[C@]12CC[C@@H]3c4ccc(O)cc4CC[C@H]3[C@@H]1C[C@@H](O)[C@@H]2O — maximum serum concentration (GC-MS; breast cancer women on NSAI, serum; vaginal, 0.03 mg, 3 h, day 0): 0.16 ng/mL
CSc1cc(C)nc(SC)c1NC(=O)CN1CCN(CCSc2nc3ccccc3[nH]2)CC1 — concentration (mouse Crl:CD1 (ICR) female, cerebrum; intranasal repeated, 32.4 µg in 0.01 N HCl, 5 min): 21 ng/g
CCCC[C@H](NC(C)=O)C(=O)N[C@H]1CCC(=O)NC[C@@H](C(=O)N[C@@H](Cc2c[nH]c3ccccc23)C(N)=O)NC(=O)[C@H](CCCNC(=N)N)NC(=O)[C@@H](Cc2ccccc2)NC(=O)[C@H](Cc2c[nH]cn2)NC1=O — Vd/F (healthy human, both sexes, plasma; subcutaneous, 1.0 mg once daily, day 1, geometric mean): 115 L
CC1=C2C[C@H]3[C@@H](CC[C@@H]4C[C@H](NS(C)(=O)=O)CC[C@@]43C)[C@@H]2CC[C@@]2(C1)O[C@@H]1C[C@H](C)CN[C@H]1[C@H]2C — AUC(0-24) (patients, plasma; oral, 130 mg single, day -7, cycle 1): 823 ng·h/mL
C[C@]12CC[C@@H]3c4ccc(O)cc4C[C@@H](CCCCCCCCC[S+]([O-])CCCC(F)(F)C(F)(F)F)[C@H]3[C@@H]1CC[C@@H]2O (stereo partly shown) — critical aggregation concentration (dynamic light scattering; 50 mM potassium phosphate; pH 7.0): 0.5 µM
[2H]C([2H])([2H])Oc1cc2c(cc1OC([2H])([2H])[2H])C1CC(=O)C(CC(C)C)CN1CC2 (stereo not shown) — dose-normalized AUC(0-t) (item: deuterated β-HTBZ; healthy human volunteers, plasma; oral, 6 mg single dose, standard meal): 4.1 ng·h/mL
CCCCCCCCC[C@H](O)CC(=O)CCc1ccc(O)c(OC)c1 — recovery (rat, small intestine site 4 contents; oral, dose not given, 4 h, β-glucuronidase treated; baseline: ingested amount): 2.93%
Cc1nc2cccc(OCC(C)(C)C(=O)NC(C)C)c2c(N)c1C(=O)O — Cmax (female Sprague-Dawley rat, plasma; dietary, 30 mg/kg/day, day 90): 31.2 ng/mL
Cn1c(-c2ccc(C(N)=O)cc2F)nnc1C(C)(C)Oc1c(F)cc(Cl)cc1F — AUC(0-inf) median (young non-Japanese subjects, plasma; oral, 20 mg single dose, day 1): 2840 ng·h/mL
CC(C)(CC(=O)N1CCCC1)NCC(=O)N1C[C@@H](F)C[C@H]1C#N — AUC(0-inf) at steady state (Chinese type 2 diabetes patients, plasma; oral, 200 mg once daily, multiple doses): 3850 ng·h/mL
CNCc1ccc(-c2[nH]c3cc(F)cc4c3c2CCNC4=O)cc1 — half-life (human patients, plasma; oral, 300 mg once daily, day 15, steady state, arithmetic mean): 29.8 h
NC(=O)c1cnc2[nH]ccc2c1N[C@@H]1[C@@H]2CC3C[C@H]1C[C@@](O)(C3)C2 — AUC(0-inf) ratio (healthy men; oral, 20 to 200 mg; baseline: Japanese over Caucasian): 1.4 fold
COc1cc(/C=C/c2ccc(N)cc2)cc(OC)c1 — concentration (rat, mammary gland; oral, 40 mg/kg daily for three days, 24 h, total, pooled): 510 ± 10 ng/g
Cc1cc(Nc2ncc(Cl)c(Nc3ccccc3S(=O)(=O)C(C)C)n2)c(OC(C)C)cc1C1CCNCC1 — AUC(tau) at steady state (item: unbound drug; patients, plasma; oral, 750 or 450 mg/day, geometric mean): 0.239 µM·h
OCCN(CCO)c1nc(N2CCCCC2)c2nc(N(CCO)CCO)nc(N3CCCCC3)c2n1 — thermodynamic solubility (shake-flask; soybean oil; 37 °C): 0.07 ± 0.01 mg/g
Oc1ccc2c3c(cnc2c1)-c1ccc(C(F)(F)F)cc1O[C@@H]3c1ccc(OCCN2CC(CF)C2)cc1 — AUC0‐∞ of total radioactivity (healthy postmenopausal women, plasma; oral solution, 400 mg [14C]-labelled, single dose, fasted; arithmetic mean): 18900 ng·h eq/mL
CC(C)=CCC/C(C)=C/CO — fraction eliminated (rat; intravenous infusion, 12.5 mg, 2 h): 99.9%
O=C(CCCN1CC=C(n2c(=O)[nH]c3ccccc32)CC1)c1ccc(F)cc1 — QTc change (male Hartley guinea pig, anaesthetized; intravenous infusion, 0.3 mg/kg, 10 min infusion; baseline: baseline): 19.1 ± 4.8%
COc1cnc(NS(=O)(=O)c2ccc(NC(=O)/C=C\c3ccc(OC(C)=O)c(OC(C)=O)c3)cc2)nc1 — log P (n-octanol/PBS; pH 7.4): 1.31
CCCCN(CCCC)CCC(O)c1cc2c(Cl)cc(Cl)cc2c2cc(C(F)(F)F)ccc12 (stereo not shown) — thermodynamic solubility (shake-flask; soybean oil; 37 °C): 52.8 ± 6.3 mg/g
C[C@H](Oc1ccc(-c2nc(-c3ccc4[nH]cnc4c3)no2)cc1C(F)(F)F)C(F)(F)F — plasma concentration (cynomolgus monkey, aneurysm model, plasma; 0.1 mg/kg once daily, 4 h post-dose, 3 months dosing): 0.018 ± 0.0019 µM
CC(C)C[C@H](N)C(=O)N1CCC[C@H](NCC(=O)N2CCC[C@H]2C(N)=O)C1 — pKa2 (capillary electrophoresis-MS; water): 8.53
CCc1cc2c(cc1N1CCC(N3CCOCC3)CC1)C(C)(C)c1[nH]c3cc(C#N)ccc3c1C2=O — Vz/F (severe hepatic impairment patients, plasma, total; oral, 300 mg single dose, fed): 5330 L
O=C(CCCCCCC(=O)Nc1ccccc1)NO — AUC(0-8 h) (LC-MS/MS; human, serum; oral, 200 mg, day 1, first dose mean): 632 ng·h/mL
CCCCCOC(=O)Nc1nc(=O)n([C@@H]2O[C@H](C)[C@@H](O)[C@H]2O)cc1F — efflux ratio (Caco-2; 4 h): > 2
FC(F)(F)Oc1ccc(Oc2ccnc(N3CCC(NC(=S)Nc4cccnc4)CC3)c2Cl)c(Cl)c1 — blood concentration (C57BL/6 mice, whole blood; i.p. or oral, 30 mg/kg, 4 h): 4 to 9 µM
O=C(CCCN1CCC(O)(c2ccc(Cl)cc2)CC1)c1ccc(F)cc1 — thermodynamic solubility (shake-flask; soybean oil; 37 °C): 1.22 ± 0.13 mg/g
O=C(Nc1ccc2sc(-c3ccc(F)c(F)c3)nc2c1)N1CCC(F)(F)C1 — brain concentration (mice, brain; intraperitoneal, 5 mg/kg, 1 h): > 16 µM
CC[C@H](C)[C@H](NC(=O)[C@@H](NC(=O)[C@H](CS)NC(=O)[C@H](C)NC(=O)[C@H](CCCNC(=N)N)NC(=O)[C@H](CCCNC(=N)N)NC(=O)[C@H](CC(N)=O)NC(=O)[C@H](CCCNC(=N)N)NC(=O)[C@H](C)NC(=O)[C@H](CS)NC(=O)[C@H](CC(C)C)NC(=O)[C@@H](NC(=O)[C@@H](NC(=O)[C@H](CS)NC(=O)[C@H](CCCCN)NC(=O)[C@@H](N)CCCNC(=N)N)C(C)C)[C@@H](C)CC)C(C)C)C(=O)N[C@@H](CC(C)C)C(=O)N[C@@H](CS)C(=O)N[C@@H](CCCNC(=N)N)C(=O)O — two-disulfide form (LC/MS; PBS; 0.1 mg/mL; baseline: LC peak area): 74%

Repeated from above:
CCCCN(CCCC)CCC(O)c1cc2c(Cl)cc(Cl)cc2c2cc(C(F)(F)F)ccc12 (stereo not shown) — thermodynamic solubility (shake-flask; soybean oil; 37 °C): 52.8 ± 6.3 mg/g
O=C(Nc1ccc2sc(-c3ccc(F)c(F)c3)nc2c1)N1CCC(F)(F)C1 — brain concentration (mice, brain; intraperitoneal, 5 mg/kg, 1 h): > 16 µM
